Results from different studies.
Protocols differ between the studies behind these lines. ± gives the spread as reported.
14-3-3 protein epsilon: 14-3-3 protein epsilon (Homo sapiens, UniProt P62258)
UniProt P62258, sequence (whole entry, looked up): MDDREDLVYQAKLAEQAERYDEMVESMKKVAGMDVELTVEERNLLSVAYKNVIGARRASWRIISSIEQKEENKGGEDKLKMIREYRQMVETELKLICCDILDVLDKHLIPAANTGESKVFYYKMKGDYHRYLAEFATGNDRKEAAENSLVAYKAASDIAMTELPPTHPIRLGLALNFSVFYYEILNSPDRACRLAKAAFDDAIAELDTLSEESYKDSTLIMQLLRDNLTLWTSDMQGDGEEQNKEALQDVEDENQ
Chymotrypsin-C: Chymotrypsin-C (Homo sapiens, UniProt Q99895)
UniProt Q99895, sequence (whole entry, unmodified, looked up): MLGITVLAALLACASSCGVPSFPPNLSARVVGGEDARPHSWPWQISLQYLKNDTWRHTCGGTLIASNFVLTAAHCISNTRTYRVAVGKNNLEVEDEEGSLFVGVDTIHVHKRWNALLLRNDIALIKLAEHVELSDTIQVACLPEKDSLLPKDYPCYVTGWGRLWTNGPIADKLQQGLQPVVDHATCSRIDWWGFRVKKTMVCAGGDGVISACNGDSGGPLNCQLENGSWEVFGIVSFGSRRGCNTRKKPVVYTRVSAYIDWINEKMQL
UniProt P29597, sequence (whole entry, looked up): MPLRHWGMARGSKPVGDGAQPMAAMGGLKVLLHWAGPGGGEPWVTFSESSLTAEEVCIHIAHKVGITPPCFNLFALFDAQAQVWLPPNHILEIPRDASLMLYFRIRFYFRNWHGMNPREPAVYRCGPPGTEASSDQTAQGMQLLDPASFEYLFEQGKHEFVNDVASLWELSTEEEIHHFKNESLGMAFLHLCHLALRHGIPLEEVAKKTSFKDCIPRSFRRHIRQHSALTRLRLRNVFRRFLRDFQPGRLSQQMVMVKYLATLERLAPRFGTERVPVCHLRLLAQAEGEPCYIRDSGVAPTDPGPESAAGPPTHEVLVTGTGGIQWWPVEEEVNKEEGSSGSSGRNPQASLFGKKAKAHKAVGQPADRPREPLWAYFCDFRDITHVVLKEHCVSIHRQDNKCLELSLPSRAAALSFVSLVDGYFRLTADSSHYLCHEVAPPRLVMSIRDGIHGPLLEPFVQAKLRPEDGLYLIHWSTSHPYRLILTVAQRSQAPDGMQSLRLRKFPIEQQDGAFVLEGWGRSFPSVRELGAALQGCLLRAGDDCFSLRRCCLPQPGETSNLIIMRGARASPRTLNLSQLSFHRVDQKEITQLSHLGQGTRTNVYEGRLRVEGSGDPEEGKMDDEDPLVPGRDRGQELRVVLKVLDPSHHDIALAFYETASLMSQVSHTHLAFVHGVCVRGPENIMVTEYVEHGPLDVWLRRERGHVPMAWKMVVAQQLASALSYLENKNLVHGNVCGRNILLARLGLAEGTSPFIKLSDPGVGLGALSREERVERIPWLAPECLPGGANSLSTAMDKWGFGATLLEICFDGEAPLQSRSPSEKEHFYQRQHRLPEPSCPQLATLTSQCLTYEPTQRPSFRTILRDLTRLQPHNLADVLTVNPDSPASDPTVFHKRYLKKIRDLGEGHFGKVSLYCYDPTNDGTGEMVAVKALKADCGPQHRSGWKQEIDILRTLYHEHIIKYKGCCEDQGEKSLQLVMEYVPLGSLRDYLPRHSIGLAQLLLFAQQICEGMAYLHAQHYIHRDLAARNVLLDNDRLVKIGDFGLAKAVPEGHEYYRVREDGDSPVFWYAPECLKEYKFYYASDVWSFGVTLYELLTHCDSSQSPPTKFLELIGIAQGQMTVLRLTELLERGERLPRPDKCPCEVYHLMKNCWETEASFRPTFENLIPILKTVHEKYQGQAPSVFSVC
UniProt Q6RHR9, sequence (whole entry, looked up): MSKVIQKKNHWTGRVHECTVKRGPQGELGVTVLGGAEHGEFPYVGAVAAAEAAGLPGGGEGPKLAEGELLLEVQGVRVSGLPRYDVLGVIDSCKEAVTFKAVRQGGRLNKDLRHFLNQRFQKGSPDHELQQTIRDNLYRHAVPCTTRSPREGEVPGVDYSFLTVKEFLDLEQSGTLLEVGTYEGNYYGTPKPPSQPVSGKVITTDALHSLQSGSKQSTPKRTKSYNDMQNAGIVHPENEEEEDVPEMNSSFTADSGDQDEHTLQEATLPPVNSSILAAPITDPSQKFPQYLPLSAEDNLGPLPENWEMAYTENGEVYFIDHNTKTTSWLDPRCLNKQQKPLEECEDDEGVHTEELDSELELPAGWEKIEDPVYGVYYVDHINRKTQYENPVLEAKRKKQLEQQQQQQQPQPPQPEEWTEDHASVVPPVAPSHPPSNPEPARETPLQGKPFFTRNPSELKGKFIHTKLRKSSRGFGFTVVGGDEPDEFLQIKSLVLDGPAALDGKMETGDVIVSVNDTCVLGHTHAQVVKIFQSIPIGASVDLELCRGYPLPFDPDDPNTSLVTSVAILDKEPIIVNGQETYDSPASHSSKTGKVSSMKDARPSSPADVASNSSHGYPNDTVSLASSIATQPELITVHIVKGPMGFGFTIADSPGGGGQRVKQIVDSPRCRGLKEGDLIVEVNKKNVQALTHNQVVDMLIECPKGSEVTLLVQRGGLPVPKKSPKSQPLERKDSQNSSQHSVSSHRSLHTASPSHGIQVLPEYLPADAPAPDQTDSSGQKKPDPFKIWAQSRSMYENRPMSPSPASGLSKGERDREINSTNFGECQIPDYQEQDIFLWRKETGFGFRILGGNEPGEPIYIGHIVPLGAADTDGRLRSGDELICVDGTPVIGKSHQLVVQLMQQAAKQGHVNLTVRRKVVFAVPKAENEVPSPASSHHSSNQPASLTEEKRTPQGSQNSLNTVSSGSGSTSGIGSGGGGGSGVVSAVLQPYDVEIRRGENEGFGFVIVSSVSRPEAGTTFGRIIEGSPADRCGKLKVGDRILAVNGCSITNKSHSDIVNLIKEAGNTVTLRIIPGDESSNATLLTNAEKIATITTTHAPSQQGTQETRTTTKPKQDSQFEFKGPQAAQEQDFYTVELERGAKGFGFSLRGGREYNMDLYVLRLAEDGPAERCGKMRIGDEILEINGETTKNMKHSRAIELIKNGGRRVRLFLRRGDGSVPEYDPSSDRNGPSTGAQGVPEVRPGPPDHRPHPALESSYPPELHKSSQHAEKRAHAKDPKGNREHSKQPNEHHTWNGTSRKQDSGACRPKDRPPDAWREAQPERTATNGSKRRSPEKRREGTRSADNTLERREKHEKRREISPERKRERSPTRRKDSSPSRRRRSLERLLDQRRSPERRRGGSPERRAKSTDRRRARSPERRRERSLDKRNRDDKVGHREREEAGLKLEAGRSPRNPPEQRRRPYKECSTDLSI
UniProt Q08460, sequence (whole entry, looked up): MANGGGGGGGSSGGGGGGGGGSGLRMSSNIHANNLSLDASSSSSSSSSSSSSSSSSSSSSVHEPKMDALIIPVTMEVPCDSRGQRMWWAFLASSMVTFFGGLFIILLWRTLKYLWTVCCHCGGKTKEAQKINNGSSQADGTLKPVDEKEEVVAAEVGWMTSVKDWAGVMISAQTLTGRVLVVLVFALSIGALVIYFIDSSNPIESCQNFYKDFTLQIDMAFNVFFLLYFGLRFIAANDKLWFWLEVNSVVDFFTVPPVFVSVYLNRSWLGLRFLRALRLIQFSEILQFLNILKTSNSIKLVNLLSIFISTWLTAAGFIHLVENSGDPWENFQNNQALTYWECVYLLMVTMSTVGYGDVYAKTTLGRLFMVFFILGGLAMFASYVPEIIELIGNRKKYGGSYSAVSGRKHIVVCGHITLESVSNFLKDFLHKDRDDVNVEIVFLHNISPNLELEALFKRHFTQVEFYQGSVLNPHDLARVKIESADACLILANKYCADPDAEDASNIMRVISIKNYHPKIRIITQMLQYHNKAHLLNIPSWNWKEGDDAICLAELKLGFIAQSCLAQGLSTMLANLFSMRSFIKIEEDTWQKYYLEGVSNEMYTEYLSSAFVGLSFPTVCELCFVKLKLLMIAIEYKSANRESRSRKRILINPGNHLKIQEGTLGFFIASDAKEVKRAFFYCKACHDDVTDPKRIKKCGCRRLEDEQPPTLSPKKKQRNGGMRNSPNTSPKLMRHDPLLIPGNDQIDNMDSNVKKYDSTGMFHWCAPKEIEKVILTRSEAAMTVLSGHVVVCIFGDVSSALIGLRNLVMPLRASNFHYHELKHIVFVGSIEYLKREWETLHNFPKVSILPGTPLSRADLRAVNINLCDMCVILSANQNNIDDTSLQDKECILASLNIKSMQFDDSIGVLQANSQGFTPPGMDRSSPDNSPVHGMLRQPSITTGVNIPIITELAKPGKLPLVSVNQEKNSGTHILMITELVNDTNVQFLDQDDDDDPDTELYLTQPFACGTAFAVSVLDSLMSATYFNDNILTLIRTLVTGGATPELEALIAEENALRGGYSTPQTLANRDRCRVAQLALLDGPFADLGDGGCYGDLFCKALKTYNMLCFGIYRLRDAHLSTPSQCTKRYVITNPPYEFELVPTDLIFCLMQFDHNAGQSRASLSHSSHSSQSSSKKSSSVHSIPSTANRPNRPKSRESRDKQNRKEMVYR
UniProt O95619, sequence (whole entry, looked up): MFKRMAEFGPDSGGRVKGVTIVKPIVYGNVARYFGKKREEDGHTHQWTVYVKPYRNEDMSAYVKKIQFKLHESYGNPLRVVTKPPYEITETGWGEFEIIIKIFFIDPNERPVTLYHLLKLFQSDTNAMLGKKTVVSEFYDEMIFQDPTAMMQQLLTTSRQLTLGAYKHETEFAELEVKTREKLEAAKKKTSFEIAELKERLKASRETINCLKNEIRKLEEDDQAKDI
UniProt Q04917, sequence (whole entry, looked up): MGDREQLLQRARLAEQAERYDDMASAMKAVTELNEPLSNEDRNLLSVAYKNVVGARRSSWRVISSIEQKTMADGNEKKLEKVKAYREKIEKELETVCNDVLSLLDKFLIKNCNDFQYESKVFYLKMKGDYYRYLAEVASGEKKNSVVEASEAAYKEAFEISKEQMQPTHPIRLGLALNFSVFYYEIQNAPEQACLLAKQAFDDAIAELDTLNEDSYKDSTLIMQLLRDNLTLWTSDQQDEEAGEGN

Structure (SMILES)	target	test	test system	conditions	Kd [nM]
CC(C)C[C@H](NC(=O)[C@H](CO)NC(=O)[C@@H]1CCCN1C(=O)[C@H](CCC(N)=O)NC(=O)[C@@H](NC(=O)[C@H](C)NC(=O)[C@H](CCCCN)NC(=O)[C@H](CC(C)C)NC(=O)[C@H](Cc1ccc(O)cc1)NC(=O)[C@H](COP(=O)(O)O)NC(=O)[C@H](CCC(=O)O)NC(=O)[C@H](CCC(=O)O)NC(=O)[C@H](CCCNC(=N)N)NC(=O)[C@H](C)NC(=O)[C@H](C)N)[C@@H](C)O)C(=O)O	Membrane-associated guanylate kinase, WW and PDZ domain-containing protein 2 (Magi2, Mus musculus, UniProt Q9WVQ1)	ITC	–	pH 8.0, 25 °C, added: tandem peptide	4000 ± 100
Nc1ncnc2c1ncn2[C@@H]1O[C@H](C[C@@H](N)CC[C@H](N)C(=O)O)[C@@H](O)[C@H]1O	O-methyltransferase (Sorghum bicolor, UniProt A0A1B6PFV1, W279A)	isothermal titration calorimetry	–	RSV-saturating	1680 ± 215
CC[C@@H](C)[C@@H](NC(=O)[C@@H](CCC(N)=O)NC(=O)[C@H](NC(=O)[C@H]1CCCN1C(=O)[C@H](NC(=O)[C@@H](CO)NC(=O)[C@@H](Cc1ccccc1)NC(=O)[C@H]1CCCN1C(=O)[C@@H](CCC(N)=O)NC(=O)[C@H](N)CCSC)[C@H](C)CC)C(C)C)C(=O)N[C@@H](C(=O)N[C@H](CC(C)C)C(=O)N[C@H](CCC(N)=O)C(=O)NCC(=O)N[C@H](CO)C(=O)N[C@H](CCCNC(=N)N)C(=O)N[C@H](CCCNC(=N)N)C(=O)N[C@H](CCCNC(=N)N)C(=O)N[C@H](CCC(N)=O)C(=O)NCC(=O)N[C@H](CCCNC(=N)N)C(N)=O)[C@H](C)O	Kcnma1 (Mus musculus, UniProt Q08460)	BK current, blocker, inside-out patch	Xenopus oocytes	pH 7.0, 22 °C, 0 mV, added: 1 µM peptide	5200
CC(=O)NCCCC[C@H](NC(=O)CNC(=O)CNC(=O)[C@@H](NC(=O)[C@H](CO)NC(=O)[C@H](CCCCNC(C)=O)NC(=O)[C@H](CCCNC(=N)N)NC(=O)[C@H](C)NC(=O)[C@@H](NC(=O)[C@@H](N)CCC(N)=O)[C@@H](C)O)[C@@H](C)O)C(=O)N[C@@H](C)C(=O)N1CCC[C@H]1C(=O)N[C@@H](CCCNC(=N)N)C(=O)N[C@@H](CCCCN)C(=O)N[C@@H](CCC(N)=O)C(=O)O	YEATS domain-containing protein 4, YEATS domain (Homo sapiens, UniProt O95619)	isothermal titration calorimetry	–	pH 7.6, 25 °C, added: histone peptide	120000 ± 6000
CC(=O)N[C@@H](CCCNC(=N)N)C(=O)N[C@H](C(=O)N[C@@H](CCCCN)C(=O)N[C@@H](CO)C(=O)N[C@@H](CCCNC(=N)N)C(=O)N[C@H](C(=O)N[C@@H](Cc1c[nH]c2ccccc12)C(=O)N[C@@H](C)C(=O)N[C@@H](Cc1ccccc1)C(N)=O)[C@@H](C)OP(=O)(O)O)[C@@H](C)O	14-3-3 protein epsilon	binding, SPR	–	pH 7.4	22
O=C(N[C@@H]1c2ccccc2C[C@H]1N1CCCC1)c1ccc(-c2ccnc3[nH]ccc23)nc1	Non-receptor tyrosine-protein kinase TYK2, JH1 (TYK2, Homo sapiens, UniProt P29597)	binding, competition with immobilised ligand	–	–	690
CC[C@H](C)[C@H](NC(=O)[C@H](CO)NC(=S)Nc1ccc2c(c1)C(=O)OC21c2ccc(O)cc2Oc2cc(O)ccc21)C(=O)N[C@@H](CCC(=O)O)C(=O)N[C@@H](CCCCN)C(=O)NCC(=O)NCC(=O)N[C@@H](CCP(=O)(O)O)C(=O)N[C@@H](CC(C)C)C(=O)N1CCC[C@H]1C(=O)N[C@@H](CCCCN)C(=O)N[C@H](C(=O)N[C@@H](Cc1c[nH]c2ccccc12)C(=O)N[C@@H](CC(C)C)C(=O)N[C@H](C(=O)N1CCC[C@H]1C(=O)N[C@@H](CCCNC(=N)N)C(=O)O)C(C)C)C(C)C	14-3-3 protein eta (Homo sapiens, UniProt Q04917)	binding, fluorescence anisotropy	–	pH 7.5, FITC-labelled phosphopeptide titration	46600
CSCC[C@@H]1NC(=O)[C@H](Cc2ccccc2)NC(=O)[C@H]([C@@H](C)O)NC(=O)[C@@H]2CSSC[C@@H]3NC(=O)[C@H]([C@@H](C)O)NC(=O)[C@H](CC(N)=O)NC(=O)[C@H](CSSC[C@@H](C(=O)N[C@@H](CC(=O)O)C(=O)N[C@@H](CCC(N)=O)C(=O)O)NC(=O)[C@H](CC(C)C)NC1=O)NC(=O)[C@H](CCCCN)NC(=O)[C@H](CC(=O)O)NC(=O)[C@H](CCCCN)NC(=O)[C@H](Cc1ccccc1)NC(=O)[C@H]([C@@H](C)O)NC(=O)[C@H]([C@@H](C)O)NC(=O)CNC(=O)[C@@H]1CCCN1C(=O)[C@H](CCC(=O)O)NC(=O)[C@@H](NC(=O)[C@@H](NC(=O)[C@@H](NC(=O)[C@H](CCC(=O)O)NC(=O)[C@H](CO)NC(=O)CN)C(C)C)[C@@H](C)O)CSSC[C@H](NC(=O)[C@H](CCCNC(=N)N)NC3=O)C(=O)NCC(=O)N[C@@H](CO)C(=O)N[C@@H](CC(=O)O)C(=O)NCC(=O)N[C@@H](CCCCN)C(=O)N[C@@H](CO)C(=O)N[C@@H](C)C(=O)N[C@@H](C)C(=O)N2	Chymotrypsin-C (Homo sapiens, UniProt Q99895, S216A)	competitive fluorescence polarization	–	24 h, pH 8.0, added: FITC-labelled tracer	4.31 ± 0.47
CC(C)C[C@H](NC(=O)[C@H](CO)NC(=O)[C@@H]1CCCN1C(=O)[C@H](CCC(N)=O)NC(=O)[C@@H](NC(=O)[C@H](C)NC(=O)[C@H](CCCCN)NC(=O)[C@H](CC(C)C)NC(=O)[C@H](Cc1ccc(O)cc1)NC(=O)[C@H](COP(=O)(O)O)NC(=O)[C@H](CCC(=O)O)NC(=O)[C@H](CCCNC(=N)N)NC(=O)[C@H](CCCNC(=N)N)NC(=O)[C@H](C)NC(=O)[C@H](C)N)[C@@H](C)O)C(=O)O	Membrane-associated guanylate kinase, WW and PDZ domain-containing protein 1 (Magi1, Mus musculus, UniProt Q6RHR9)	isothermal titration calorimetry	mouse	pH 8.0, 25 °C	360 ± 20
CC(=O)N[C@@H](CCCNC(=N)N)C(=O)N[C@H](C(=O)N[C@@H](CCCCN)C(=O)N[C@@H](CO)C(=O)N[C@@H](CCCNC(=N)N)C(=O)N[C@H](C(=O)N[C@@H](Cc1c[nH]c2ccccc12)C(=O)N[C@@H](C)C(=O)N[C@@H](Cc1ccc(O)cc1)C(N)=O)[C@@H](C)OP(=O)(O)O)[C@@H](C)O	14-3-3 protein epsilon	binding, SPR	–	–	83.6
CC(=O)NCC(=O)N[C@@H](Cc1ccccc1)C(=O)N[C@@H](Cc1ccccc1)C(=O)N[C@@H](Cc1ccc(O)cc1)C(=O)NCC(=O)N[C@@H](Cc1ccc(O)cc1)C(=O)NCC(=O)N[C@@H](CO)C(=O)N[C@@H](CO)C(=O)N[C@@H](CO)C(=O)N[C@@H](CCCNC(=N)N)C(=O)N[C@@H](CCCNC(=N)N)C(=O)N[C@@H](C)C(=O)N1CCC[C@H]1C(=O)N[C@@H](CCC(N)=O)C(=O)N[C@H](C(=O)O)[C@@H](C)O	IGF1R (Homo sapiens, UniProt P08069)	binding, MST	–	–	27.7
CSCC[C@@H]1NC(=O)[C@H](CCSC)NC(=O)[C@H]([C@@H](C)O)NC(=O)[C@@H]2CSSC[C@@H]3NC(=O)[C@H]([C@@H](C)O)NC(=O)[C@H](CC(N)=O)NC(=O)[C@H](CSSC[C@@H](C(=O)N[C@@H](CC(=O)O)C(=O)N[C@@H](CCC(N)=O)C(=O)O)NC(=O)[C@H](CC(C)C)NC1=O)NC(=O)[C@H](CCCCN)NC(=O)[C@H](CC(=O)O)NC(=O)[C@H](CCCCN)NC(=O)[C@H](Cc1ccccc1)NC(=O)[C@H]([C@@H](C)O)NC(=O)[C@H]([C@@H](C)O)NC(=O)CNC(=O)[C@@H]1CCCN1C(=O)[C@H](CCC(=O)O)NC(=O)[C@@H](NC(=O)[C@@H](NC(=O)[C@@H](NC(=O)[C@H](CCC(=O)O)NC(=O)[C@H](CO)NC(=O)CN)C(C)C)[C@@H](C)O)CSSC[C@H](NC(=O)[C@H](CCCNC(=N)N)NC3=O)C(=O)NCC(=O)N[C@@H](CO)C(=O)N[C@@H](CC(=O)O)C(=O)NCC(=O)N[C@@H](CCCCN)C(=O)N[C@@H](CO)C(=O)N[C@@H](C)C(=O)N[C@@H](C)C(=O)N2	Chymotrypsin-C	cell-free assay, FP	–	pH 8	0.4
CSCC[C@H](NC=O)C(=O)N[C@@H](CCCNC(=N)N)C(=O)N[C@H](C(=O)NCC(=O)N[C@@H](CC(N)=O)C(=O)N[C@@H](C)C(=O)N[C@@H](CC(N)=O)C(=O)NCC(=O)NCC(=O)N[C@@H](CCCCNC(=S)Nc1ccc2c(c1)C(=O)OC21c2ccc(O)cc2Oc2cc(O)ccc21)C(=O)O)[C@@H](C)O	Uncharacterized protein YejA (yejA, Escherichia coli, UniProt P33913, R69A)	binding, fluorescence polarisation	–	YejA variant R51A	13100 ± 570
CSCC[C@@H]1NC(=O)[C@H](CCSC)NC(=O)[C@H]([C@@H](C)O)NC(=O)[C@@H]2CSSC[C@@H]3NC(=O)[C@H]([C@@H](C)O)NC(=O)[C@H](CC(N)=O)NC(=O)[C@H](CSSC[C@@H](C(=O)N[C@@H](CC(=O)O)C(=O)N[C@@H](CCC(N)=O)C(=O)O)NC(=O)[C@H](CC(C)C)NC1=O)NC(=O)[C@H](CCCCN)NC(=O)[C@H](CC(=O)O)NC(=O)[C@H](CCCCN)NC(=O)[C@H](Cc1ccccc1)NC(=O)[C@H]([C@@H](C)O)NC(=O)[C@H]([C@@H](C)O)NC(=O)CNC(=O)[C@@H]1CCCN1C(=O)[C@H](CCC(=O)O)NC(=O)[C@@H](NC(=O)[C@@H](NC(=O)[C@@H](NC(=O)[C@H](CCC(=O)O)NC(=O)[C@H](CO)NC(=O)CN)C(C)C)[C@@H](C)O)CSSC[C@H](NC(=O)[C@H](CCCNC(=N)N)NC3=O)C(=O)NCC(=O)N[C@@H](CO)C(=O)N[C@@H](CC(=O)O)C(=O)NCC(=O)N[C@@H](CCCCN)C(=O)N[C@@H](CO)C(=O)N[C@@H](C)C(=O)N[C@@H](Cc1ccc(O)cc1)C(=O)N2	Chymotrypsin-C	cell-free assay, FP	–	pH 8	1.69
CSCC[C@H](NC(=O)CNC(=O)[C@H](CCCNC(=N)N)NC(=O)[C@H](C)NC(=O)[C@@H](NC(=O)[C@H](CCC(N)=O)NC(=O)[C@H](Cc1ccc(OP(=O)(O)O)cc1)NC(=O)[C@H](C)NC(=O)[C@H](CS)NC(=O)[C@H](CO)NC(=O)[C@@H](NC(=O)[C@H](CC(C)C)NC(=O)[C@H](CC(=O)O)NC(=O)[C@H](CCCCN)NC(=O)[C@H](CO)NC(=O)[C@H](CO)NC(=O)c1ccc2c(c1)C(=O)OC21c2ccc(N(C)C)cc2Oc2cc(N(C)C)ccc21)C(C)C)C(C)C)C(=O)N[C@@H](CCC(=O)O)C(=O)N[C@@H](CC(=O)O)C(=O)O	Guanine nucleotide exchange factor VAV2, SH2 domain (VAV2, Homo sapiens, UniProt P52735)	binding	–	–	62

For quick reference, copied from above:
Structure (SMILES)	target	test	test system	conditions	Kd [nM]
CSCC[C@H](NC=O)C(=O)N[C@@H](CCCNC(=N)N)C(=O)N[C@H](C(=O)NCC(=O)N[C@@H](CC(N)=O)C(=O)N[C@@H](C)C(=O)N[C@@H](CC(N)=O)C(=O)NCC(=O)NCC(=O)N[C@@H](CCCCNC(=S)Nc1ccc2c(c1)C(=O)OC21c2ccc(O)cc2Oc2cc(O)ccc21)C(=O)O)[C@@H](C)O	Uncharacterized protein YejA (yejA, Escherichia coli, UniProt P33913, R69A)	binding, fluorescence polarisation	–	YejA variant R51A	13100 ± 570
CSCC[C@@H]1NC(=O)[C@H](CCSC)NC(=O)[C@H]([C@@H](C)O)NC(=O)[C@@H]2CSSC[C@@H]3NC(=O)[C@H]([C@@H](C)O)NC(=O)[C@H](CC(N)=O)NC(=O)[C@H](CSSC[C@@H](C(=O)N[C@@H](CC(=O)O)C(=O)N[C@@H](CCC(N)=O)C(=O)O)NC(=O)[C@H](CC(C)C)NC1=O)NC(=O)[C@H](CCCCN)NC(=O)[C@H](CC(=O)O)NC(=O)[C@H](CCCCN)NC(=O)[C@H](Cc1ccccc1)NC(=O)[C@H]([C@@H](C)O)NC(=O)[C@H]([C@@H](C)O)NC(=O)CNC(=O)[C@@H]1CCCN1C(=O)[C@H](CCC(=O)O)NC(=O)[C@@H](NC(=O)[C@@H](NC(=O)[C@@H](NC(=O)[C@H](CCC(=O)O)NC(=O)[C@H](CO)NC(=O)CN)C(C)C)[C@@H](C)O)CSSC[C@H](NC(=O)[C@H](CCCNC(=N)N)NC3=O)C(=O)NCC(=O)N[C@@H](CO)C(=O)N[C@@H](CC(=O)O)C(=O)NCC(=O)N[C@@H](CCCCN)C(=O)N[C@@H](CO)C(=O)N[C@@H](C)C(=O)N[C@@H](Cc1ccc(O)cc1)C(=O)N2	Chymotrypsin-C	cell-free assay, FP	–	pH 8	1.69
